Assay results of several laboratories.
Each numbered part is a random draw from the data of one study; scales do not carry over between parts. Substitutions count along the parent as printed.

Study 1
Target: ABI1, truncated, D143A, DHFR fusion (Arabidopsis thaliana)
Method: DHFR PCA, deep sequencing
Matrix: yeast
Setting: methotrexate growth selection, single substitutions
With: (+)-ABA 1.4 µM
Baseline: wild-type fitted maximum
Direction: higher = stronger binding
Starting sequence: PYL1, truncated, DHFR fusion (Arabidopsis thaliana); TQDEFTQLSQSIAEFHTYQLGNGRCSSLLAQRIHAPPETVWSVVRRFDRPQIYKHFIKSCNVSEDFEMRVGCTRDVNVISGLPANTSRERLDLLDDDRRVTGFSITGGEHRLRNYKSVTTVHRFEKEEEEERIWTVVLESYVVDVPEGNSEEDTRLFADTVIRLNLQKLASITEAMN; partner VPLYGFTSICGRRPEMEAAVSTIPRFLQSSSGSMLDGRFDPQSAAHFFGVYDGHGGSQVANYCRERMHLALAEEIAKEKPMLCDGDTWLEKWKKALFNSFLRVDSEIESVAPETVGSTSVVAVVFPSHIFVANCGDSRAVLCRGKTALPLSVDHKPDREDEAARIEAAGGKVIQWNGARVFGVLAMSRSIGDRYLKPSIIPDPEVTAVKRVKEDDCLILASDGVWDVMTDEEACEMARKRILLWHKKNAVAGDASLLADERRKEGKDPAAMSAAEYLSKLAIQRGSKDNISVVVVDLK
Variant	relative binding score
Q19F	20.3%
C72K	0.675%
L28S	4.69%
D153T	-11.6%
V142L	1.04%
R123P	59.1%
R88D	-10.1%
V100D	-3.55%
N85Y	58.6%
E128L	45.1%
D159S	-4.89%
S104H	-5.53%
R46L	-1.97%
L169M	-2.84%
E64R	47.9%
Y53N	-4.22%

Study 2
Target: CEP164, C-terminal peptide (human)
Method: DHFR complementation, deep sequencing
Matrix: yeast
Setting: single substitutions, model-inferred values
Baseline: wild type
Direction: higher = weaker binding
Starting sequence: PDZK1, PDZ domain 2 (human); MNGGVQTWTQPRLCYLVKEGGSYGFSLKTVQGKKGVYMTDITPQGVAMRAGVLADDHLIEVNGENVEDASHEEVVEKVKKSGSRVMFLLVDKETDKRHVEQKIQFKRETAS; partner HNRVKVYRF
Variant	binding free energy change
K96H	-0.00651 kcal/mol
D91Q	-0.104 kcal/mol
T109V	-0.148 kcal/mol
G35L	0.764 kcal/mol
T109Y	-0.13 kcal/mol
V66D	1.38 kcal/mol
H98I	-0.0771 kcal/mol
Y37W	0.314 kcal/mol
Y15E	-0.139 kcal/mol
E100H	-0.064 kcal/mol
R84S	0.00634 kcal/mol

Study 3
Target: CCNF, cyclin fold, Cln2 fusion (human)
Method: yeast growth competition, sequencing
Matrix: yeast
Setting: strong parent motif
Baseline: not given
Direction: higher = stronger binding
Starting sequence: E2F1 docking peptide (human); PPVKRRLDFETDH
Variant	normalised enrichment score
PPVKRRLDFETGH [D12G]	8.01
PPVKRRCDFETDH [L7C]	1.41
PPVKFRLDFETDH [R5F]	-0.111
PHVKRRLDFETDH [P2H]	7.91
PPVKRRLDFPTDH [E10P]	7.61
PPVKRRLDTETDH [F9T]	1.89
PPVKRRLDFDTDH [E10D]	7.19
PPVKRRLFFETDH [D8F]	8.61
PPVKRRADFETDH [L7A]	0.491
PPVKRRLDFETKH [D12K]	7.77
PPVKRCLDFETDH [R6C]	7.14
PPVKRRLDMETDH [F9M]	7.07
PPVSRRLDFETDH [K4S]	7.11
PPVKRRLDFVTDH [E10V]	7.85
PPVKRRLTFETDH [D8T]	7.43
PPTKRRLDFETDH [V3T]	7.65
PPVKRRLDQETDH [F9Q]	1.17
PPVGRRLDFETDH [K4G]	6.86
PPVKRRLYFETDH [D8Y]	8.33
PPVNRRLDFETDH [K4N]	6.77
PPAKRRLDFETDH [V3A]	6.99
PPVKERLDFETDH [R5E]	-0.243
PPVKRVLDFETDH [R6V]	6.91
PPVKRRKDFETDH [L7K]	0.431
PPVKRRLDFQTDH [E10Q]	7.97

Study 4
Target: RNA binding protein fox-1 homolog 2, RRM domain, GST-SBP tag (RBFOX2, Homo sapiens, UniProt O43251-10, residues 100-194)
Method: RNA Bind-n-Seq
Molecule type: RNA
Matrix: in vitro
Concentration: 365 nM
Setting: natural RNA segment, single round, ends assumed
Baseline: no-protein control
Direction: higher = stronger binding
All sequences stand within: GGGAGUUCUACAGUCCGACGAUC … UGGAAUUCUCGGGUGCCAA
Target sequence (chain): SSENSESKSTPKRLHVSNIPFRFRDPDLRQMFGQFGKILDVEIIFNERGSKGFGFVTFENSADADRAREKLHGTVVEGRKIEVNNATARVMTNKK
Strand	RBNS enrichment (R)
UGUAAGUGGUGGAGAGUGCUGUCCUGUGUAGGCAGCUUCUGACUGCAGUUGAAAUGUAGUCCCCUAGAAUCCUAAAGGCUGUUAUUCUCAUCCUAGUUCCAGGUGUAACU	0.31
GCUCCCGCUUCUGCUCUGCUUGGGCUCACAGGUAUGCACUGGCUGGGUGUGGAUGAGUAUUUUUCUGACCCCAGCCCUGCAGUGGAACCUAAUAAAAGCACCUGAAGCGA	0.389
AGGUCAGUUCUAUGUGGUGUGGCAGUUACAUAGGAUGAGUACAUUUUCAGAGCAGCUAGAUGUCUGCAUGUGUGCAUAUAUGCAUGCCCACUCCUUUCAUAUACGUUUGU	2.16
CAGCAACCCUGUUCACGCUCCACCUGUCUGGUCCAUAGCUCCCUGGAGGCUGGGCCAGGAGGCAGCCUCCGAACCAUGCCCCAUAUAACGCUUGGGUGCGUGGGAGGGCG	0.298
CCUAACUAAAGUACUUUCACAAACACUAACAUUCAGAAGGAUGUUGAGAAAGCAAGAUCUAAUCUGAAAUGGAUGACAUUAACAAGCUCCUUAAGCCCCUGAAGUUUUAU	0.376
AGAGCAAAAAAACCCAAACACGAUAAACCUUUCAAAAGACUUUCUAAGGAUGAUAUUGGAAUGCACCAGCCCUCACAUGUGUAUGCACAUUUGCCAGAAUAUAAGAGUUU	0.904
UCUGUCUUCUGAGGCUUAGCAUCUGUCAGGGCUGGGGUUGGUUCAGCCCUUGGUACUCCAGAUGUGGUUCCAGGCUCCCUUGUGGGAGCUGGACCGGUCUGGGUUUAAUC	0.248
UUGAAUUUGAGACCUAUUGUAAGCAUGAUCCCUACCUACAACCCUAUUUUUACAUACCCAAUUCCAGUAACUCUCAAAUCCAGUAUUUUACUCAAACUCUGUUGGGGCAU	10.5

Study 5
Target: Sal-like protein 4, full length isoform A (SALL4, Homo sapiens, UniProt Q9UJQ4, residues 1-1053)
Sequence of UniProt Q9UJQ4 (whole entry, looked up): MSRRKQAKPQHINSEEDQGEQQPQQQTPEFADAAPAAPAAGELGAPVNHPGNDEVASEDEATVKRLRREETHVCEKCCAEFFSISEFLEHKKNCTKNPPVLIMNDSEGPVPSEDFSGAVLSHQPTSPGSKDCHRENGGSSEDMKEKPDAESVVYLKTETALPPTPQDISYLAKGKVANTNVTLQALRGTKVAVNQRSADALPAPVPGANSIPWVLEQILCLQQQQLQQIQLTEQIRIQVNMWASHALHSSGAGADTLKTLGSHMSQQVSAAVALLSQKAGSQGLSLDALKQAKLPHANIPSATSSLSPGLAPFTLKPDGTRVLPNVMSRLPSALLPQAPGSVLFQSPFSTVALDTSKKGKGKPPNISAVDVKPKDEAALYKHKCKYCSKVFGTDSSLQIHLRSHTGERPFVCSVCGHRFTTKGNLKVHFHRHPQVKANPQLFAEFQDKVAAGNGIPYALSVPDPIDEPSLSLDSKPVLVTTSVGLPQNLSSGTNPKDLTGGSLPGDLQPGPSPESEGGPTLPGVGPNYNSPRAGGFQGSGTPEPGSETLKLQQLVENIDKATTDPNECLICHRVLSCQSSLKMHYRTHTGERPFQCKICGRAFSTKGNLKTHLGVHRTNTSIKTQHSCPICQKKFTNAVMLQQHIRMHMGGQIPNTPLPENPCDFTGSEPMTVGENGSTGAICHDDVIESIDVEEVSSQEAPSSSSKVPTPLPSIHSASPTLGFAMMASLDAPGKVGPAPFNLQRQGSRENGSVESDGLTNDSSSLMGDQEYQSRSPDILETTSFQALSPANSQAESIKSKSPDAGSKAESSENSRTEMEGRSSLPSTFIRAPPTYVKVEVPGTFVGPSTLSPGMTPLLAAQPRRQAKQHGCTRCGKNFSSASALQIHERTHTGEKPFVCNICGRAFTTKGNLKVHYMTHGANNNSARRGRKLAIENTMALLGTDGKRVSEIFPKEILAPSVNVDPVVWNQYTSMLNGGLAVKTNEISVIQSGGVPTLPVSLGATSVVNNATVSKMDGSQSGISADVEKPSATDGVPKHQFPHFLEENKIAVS
Method: universal PBM
Molecule type: double-stranded DNA, one strand shown
Matrix: in vitro
Concentration: 600 nM
Setting: 8-mer, flanks averaged, mean of replicates
Direction: higher = stronger binding
Strand	E-score
CTAGTGTA	0.0864
ACTTCACA	0.107
GAGTGGTA	-0.0855
ACCCACGA	-0.248
ACGTCTCT	-0.106
CAGTCGCA	-0.145
ACTCTTAT	0.313
ATACATTG	0.215
CGTGTCAA	-0.193
ACGTTACA	0.178
AGAATACA	0.248
AGGGTATG	0.0454
ACTGTCAT	0.132
CTCCTAAG	-0.177
GGGCGTGA	-0.22
CGCCCGCC	-0.362
ACCCCTCG	-0.256
GAATCCCC	-0.297
CCTTGCGA	-0.189
CTACCGGC	-0.331

Further values, each from its own experiment
Molecule	target	test	test system	setting	how to read	endpoint	value
PhoQ, residues 284 288 289 292 302 303 NLMGRA	PhoP, residues 12 14 15 18 19 NQFFI (Escherichia coli, UniProt P23836)	Sort-seq, measured: YFP reporter	E. coli	PhoQ-PhoP variant library, with: 10 µM Mg2+	baseline: high Mg2+ state, higher = stronger signaling	fold induction	12.5

Repeated from above (study 1):
Variant	relative binding score
N85Y	58.6%
R46L	-1.97%
R123P	59.1%
V142L	1.04%
V100D	-3.55%
Y53N	-4.22%
L169M	-2.84%
S104H	-5.53%
E64R	47.9%
D159S	-4.89%
E128L	45.1%
D153T	-11.6%
Q19F	20.3%
